Results collected from several papers.
Lines come from different studies, so protocols differ. ± marks the error that the study gave.
Organism: Klebsiella pneumoniae

For `O=C(O)c1cn(C2CC2)c2cc(N3CCNCC3)c(F)cc2c1=O`, the MIC was 0.49 µg/mL (microbial growth, broth dilution).
The MIC of `CC[C@H](C)[C@H](NC(=O)[C@H](CCCNC(=N)N)NC(=O)[C@@H](N)CCCNC(=N)N)C(=O)N[C@@H](CCCNC(=N)N)C(=O)N1CCC[C@H]1C(=O)N[C@@H](CCCNC(=N)N)C(=O)N1CCC[C@H]1C(=O)N1CCC[C@H]1C(=O)N[C@@H](CCCNC(=N)N)C(=O)N[C@@H](CC(C)C)C(=O)N1CCC[C@H]1C(=O)N[C@@H](CCCNC(=N)N)C(=O)N1CCC[C@H]1C(=O)N[C@@H](CCCNC(=N)N)C(=O)N1CCC[C@H]1C(=O)N[C@@H](CCCNC(=N)N)C(=O)N1CCC[C@H]1C(=O)N[C@@H](CC(C)C)C(=O)N1CCC[C@H]1C(=O)N[C@@H](Cc1ccccc1)C(=O)N1CCC[C@H]1C(=O)N[C@@H](CCCNC(=N)N)C(=O)N1CCC[C@H]1C(=O)NCC(=O)N1CCC[C@H]1C(=O)N[C@@H](CCCNC(=N)N)C(=O)N1CCC[C@H]1C(=O)N[C@H](C(=O)N1CCC[C@H]1C(=O)N[C@@H](CCCNC(=N)N)C(=O)N1CCC[C@H]1C(=O)N[C@@H](CC(C)C)C(=O)N1CCC[C@H]1C(=O)N[C@@H](Cc1ccccc1)C(=O)N1CCC[C@H]1C(=O)O)[C@@H](C)CC` is reported as 0.5 µM (broth microdilution; NTUH K2044, Mueller Hinton broth; 24 h, 37 °C).
With `N#CC(=Cc1ccccc1O)C1=NC(=O)C(=Cc2cn(-c3ccccc3)nc2-c2ccccc2)S1` the MIC was 0.46 µg/mL (microbial growth, broth dilution).
`CCCCCCCC(=O)N[C@@H](CCN)C(=O)N[C@@H](CCN)C(=O)N[C@@H](CCN)C(=O)N[C@H](Cc1ccccc1)C(=O)N[C@@H](CC(C)C)C(=O)N[C@@H](CCN)C(=O)N[C@@H](C(=O)N[C@@H](CC(C)C)C(=O)N[C@@H](CCN)C(N)=O)C(C)C` has an MIC of 0.0625 to 0.125 µg/mL (checkerboard, item: rifampicin; ATCC 13883; sensitization to antibiotics, with: compound at 2 µg/mL).
The MIC of `Polymyxin B` is reported as 2 µg/mL (NCTC 13438; 5% CO2).
With `O=C(O)c1cn(C2CC2)c2cc(N3CCNCC3)c(F)cc2c1=O` the MIC was 2.9 µM (microbial growth, broth dilution; ATCC33495 DSM11678; 20 h).
`CCCCCCCC(=O)N[C@@H](CCCN)C(=O)N[C@H](C(=O)N[C@@H](CCCN)C(=O)N[C@H](Cc1ccccc1)C(=O)N[C@@H](CC(C)C)C(=O)N[C@@H](CCCN)C(=O)N[C@@H](C(=O)N[C@@H](CC(C)C)C(=O)N[C@@H](CO)C(N)=O)C(C)C)[C@@H](C)CC` has an MIC of 0.0313 to 0.0625 µg/mL (checkerboard, item: rifampicin; ATCC 13883; sensitization to antibiotics, with: compound at 2 µg/mL).
With `CC(C)(S)C(NC[C@H](NC[C@H](N)C(=O)O)C(=O)O)C(=O)O` (stereo in doubt) the MIC was 32 µg/mL (broth microdilution; ATCC 33495 expressing NDM-1).
With `CC[C@H](C)[C@H](NC(=O)[C@H](CCCNC(=N)N)NC(=O)[C@@H](N)CCCNC(=N)N)C(=O)N[C@@H](CCCNC(=N)N)C(=O)N1CCC[C@H]1C(=O)N[C@@H](CCCNC(=N)N)C(=O)N1CCC[C@H]1C(=O)N1CCC[C@H]1C(=O)N[C@@H](CCCNC(=N)N)C(=O)N[C@@H](CC(C)C)C(=O)N1CCC[C@H]1C(=O)N[C@@H](CCCNC(=N)N)C(=O)N1CCC[C@H]1C(=O)N[C@@H](CCCNC(=N)N)C(=O)N1CCC[C@H]1C(=O)N[C@@H](CCCNC(=N)N)C(=O)O` the MIC was 1 µM (broth microdilution; NTUH K2044, Mueller Hinton broth; 24 h, 37 °C).
For `colistin`, the MIC was 2 µg/mL (NCTC 13438; 5% CO2).
`CCOC(=O)c1c(N)csc1-c1cn(-c2ccccc2)nc1-c1ccc(C)cc1` gave an MIC of 0.125 ± 0.3 µg/mL (broth microdilution; clinical urinary isolate; compound gamma-irradiated 20 kGy).
For `CC1(C)S[C@@H]2[C@H](NC(=O)[C@H](N)c3ccccc3)C(=O)N2[C@H]1C(=O)O`, the MIC was > 367 µM.
`CCCCCCCC(=O)N[C@@H](CCN)C(=O)N[C@H](C(=O)N[C@@H](CCN)C(=O)N[C@H](Cc1ccccc1)C(=O)N[C@@H](CC(C)C)C(=O)N[C@@H](CCN)C(=O)N[C@@H](C(=O)N[C@@H](CC(C)C)C(=O)N[C@@H](CCN)C(N)=O)C(C)C)[C@@H](C)CC` has an MIC of 0.0019 to 0.0039 µg/mL (checkerboard, item: rifampicin; ATCC 13883; sensitization to antibiotics, with: compound at 2 µg/mL).
With `CCCCCCCCCC(=O)N[C@@H](CCCCN)CN1CC(=O)N(c2ccc(N3CN(C[C@H](CCCCN)NC(=O)CCCCCCCCC)CC3=O)cc2)C1` the MIC was < 6 µg/mL (microbial growth; ATCC13383).

Excerpt of the above:
The MIC of `CC[C@H](C)[C@H](NC(=O)[C@H](CCCNC(=N)N)NC(=O)[C@@H](N)CCCNC(=N)N)C(=O)N[C@@H](CCCNC(=N)N)C(=O)N1CCC[C@H]1C(=O)N[C@@H](CCCNC(=N)N)C(=O)N1CCC[C@H]1C(=O)N1CCC[C@H]1C(=O)N[C@@H](CCCNC(=N)N)C(=O)N[C@@H](CC(C)C)C(=O)N1CCC[C@H]1C(=O)N[C@@H](CCCNC(=N)N)C(=O)N1CCC[C@H]1C(=O)N[C@@H](CCCNC(=N)N)C(=O)N1CCC[C@H]1C(=O)N[C@@H](CCCNC(=N)N)C(=O)N1CCC[C@H]1C(=O)N[C@@H](CC(C)C)C(=O)N1CCC[C@H]1C(=O)N[C@@H](Cc1ccccc1)C(=O)N1CCC[C@H]1C(=O)N[C@@H](CCCNC(=N)N)C(=O)N1CCC[C@H]1C(=O)NCC(=O)N1CCC[C@H]1C(=O)N[C@@H](CCCNC(=N)N)C(=O)N1CCC[C@H]1C(=O)N[C@H](C(=O)N1CCC[C@H]1C(=O)N[C@@H](CCCNC(=N)N)C(=O)N1CCC[C@H]1C(=O)N[C@@H](CC(C)C)C(=O)N1CCC[C@H]1C(=O)N[C@@H](Cc1ccccc1)C(=O)N1CCC[C@H]1C(=O)O)[C@@H](C)CC` is reported as 0.5 µM (broth microdilution; NTUH K2044, Mueller Hinton broth; 24 h, 37 °C).
